Published values of several laboratories.
Each numbered part is a random draw from the data of one study; scales do not carry over between parts. Positions count from the first letter of the parent shown.
Chain of UniProt Q13554 (whole entry, looked up): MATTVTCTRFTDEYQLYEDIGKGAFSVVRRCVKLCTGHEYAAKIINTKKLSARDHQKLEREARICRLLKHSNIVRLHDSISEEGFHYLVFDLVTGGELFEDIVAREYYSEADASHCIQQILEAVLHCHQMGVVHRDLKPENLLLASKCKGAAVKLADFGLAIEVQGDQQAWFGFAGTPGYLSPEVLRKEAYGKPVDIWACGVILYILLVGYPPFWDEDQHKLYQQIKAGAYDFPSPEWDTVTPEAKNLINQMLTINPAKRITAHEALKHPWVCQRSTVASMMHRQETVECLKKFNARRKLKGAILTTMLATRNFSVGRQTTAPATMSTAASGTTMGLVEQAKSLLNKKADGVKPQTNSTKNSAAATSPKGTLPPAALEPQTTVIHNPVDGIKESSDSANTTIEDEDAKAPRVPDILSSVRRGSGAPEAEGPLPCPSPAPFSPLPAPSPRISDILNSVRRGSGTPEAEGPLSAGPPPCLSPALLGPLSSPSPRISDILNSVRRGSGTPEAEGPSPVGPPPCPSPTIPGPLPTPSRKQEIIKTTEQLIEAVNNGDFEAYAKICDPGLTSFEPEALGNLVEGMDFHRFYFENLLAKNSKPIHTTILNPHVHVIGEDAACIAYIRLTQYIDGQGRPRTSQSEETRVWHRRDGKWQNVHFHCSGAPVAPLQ

Series 1
Target: PABPC1L2, full length, GST fusion (mouse, UniProt A0ABA7IW68)
Method: RNAcompete
Form: RNA
Sample: in vitro
Concentration: 20 nM
Setting: 7-mer, probes averaged, single round
Relative to: mean of 7-mers
Direction: higher = stronger binding
Oligonucleotide	7-mer Z-score
GCCUUGC	-0.36
AGCGUCU	-0.26
GGCCGAU	-0.0446
UAAACCC	0.0805
CGGCUUU	-0.233
UUAUGCC	-0.282
UAUUACG	-0.119
GUAUUUG	-0.34

Series 2
Target: FOSL2, bZIP domain (human)
Method: DHFR protein complementation
Sample: yeast
Setting: single substitutions, most at no-binding floor
Relative to: wild-type JUN-FOS pair
Direction: higher = stronger binding
Starting sequence: JUN, bZIP domain (human); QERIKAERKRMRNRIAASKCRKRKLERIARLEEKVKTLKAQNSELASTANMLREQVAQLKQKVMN; partner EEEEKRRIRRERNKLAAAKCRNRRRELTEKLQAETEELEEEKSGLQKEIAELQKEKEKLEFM
Variant	binding fitness [natural log]
L52F	-0.66
M51T	0.0947
T37S	0.0348
M51G	0.0153
L59G	-1.03
A40W	-0.161
V35F	-0.458
A49K	0.0117

Series 3
Target: ABI1, truncated, D143A, DHFR fusion (Arabidopsis thaliana)
Method: DHFR PCA, deep sequencing
Sample: yeast
Setting: methotrexate growth selection, single substitutions
Added: (+)-ABA 0.11 µM
Relative to: wild-type fitted maximum
Direction: higher = stronger binding
Starting sequence: PYL1, truncated, DHFR fusion (Arabidopsis thaliana); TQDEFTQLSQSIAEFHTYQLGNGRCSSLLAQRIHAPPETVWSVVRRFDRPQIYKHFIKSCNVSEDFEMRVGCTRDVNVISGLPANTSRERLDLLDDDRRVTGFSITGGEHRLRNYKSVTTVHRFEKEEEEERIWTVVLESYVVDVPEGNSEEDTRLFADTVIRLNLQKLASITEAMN
Variant	relative binding score [%]
L164E	4.31
I52Y	8.92
E125C	53.8
D3W	27.2
R24T	19.7
L82F	69.9
D75E	58
E130H	31.1

Further values, each from its own experiment
SMILES	target	test	setting	scale	quantity	value
CN(C)S(=O)(=O)c1ccc2c(c1)/C(=C/c1cc3c([nH]1)CCCC3)C(=O)N2	Calcium/calmodulin-dependent protein kinase type II subunit beta (CAMK2B, Homo sapiens, UniProt Q13554)	enzyme activity, inhibitor	0.5 µM	relative to: control	remaining activity	70%

Repeated from above (series 2):
Variant	binding fitness [natural log]
A40W	-0.161
V35F	-0.458
A49K	0.0117
